Published values pooled from the literature.
Lines come from different studies, so protocols differ. ± marks the error that the study gave.

The IC50 of `CCOC(=O)c1ccc(N)cc1` is reported as greater than 3000 µM (batrachotoxin-modified sodium channel, rat; ion current, inhibitor, whole-cell voltage clamp; GH3; resting channels, held at -170 mV).
`O=C(Nc1cccnn1)N1CCN([C@@H]2CCOc3cc(C(F)(F)F)ccc32)CC1` has an IC50 of 23 µM (GABA-gated Cl- channel; binding).
`O=C(NC(=O)c1ccccc1Cl)Nc1ccc(Cl)cc1` has an IC50 of greater than 1 µg/mL (mAb-19F2 (BALB/c mouse monoclonal antibody); antibody binding, indirect competitive ELISA).
For `Cc1cc2c(C(C)C)c(O)c(O)c(C=O)c2c(O)c1-c1c(C)cc2c(C(C)C)c(O)c(O)c(C=O)c2c1O`, the IC50 was 10 µM (class IIb HDAC; enzyme activity; bovine heart lysate).
The IC50 of `CC[C@H](C)[C@@H]1C(=O)O[C@H]1C(=O)NCC(=O)N[C@H](C(=O)OCc1ccccc1)C(C)C` is reported as 0.261 ± 0.008 µM (human proteasome β2 subunit).
With `NC[C@@H]1O[C@H](O[C@H]2[C@@H](O)[C@H](O[C@@H]3[C@@H](O)[C@H](N)C[C@H](N)[C@H]3O[C@H]3O[C@H](CO)C[C@H](O)[C@H]3N)O[C@@H]2CO)[C@H](N)[C@@H](O)[C@@H]1O` the IC50 was 0.05 ± 0.01 µg/mL (Mycobacterium smegmatis ribosome wild type; translation, cell-free luciferase synthesis).
For `ikarugamycin`, the IC50 was 14.3 µM (androgen receptor; reporter gene, antagonist, PSA promoter luciferase; LAPC4; 24 h).
`N=C(N)NN=C(/C=C/c1ccc([N+](=O)[O-])o1)/C=C/c1ccc([N+](=O)[O-])o1` gave an IC50 of 23.4 µM (ribosome, P. aeruginosa; poly-Phe synthesis, aminoacylation-translation; Pseudomonas aeruginosa).
For `O=C(NCNC(=O)NC1C(=O)NC(=O)N1CO)NC1C(=O)NC(=O)N1CO` (stereo not shown), IC50 read “inactive” (cysteine peptide Ac-RFAACAA-COOH; peptide depletion, DPRA RapidFire-MS/MS; 24 h, pH 7.5, room temperature, added: 5.0 µM cysteine peptide).
For `CCC[S+]([O-])c1ccc2[nH]c(NC(=O)OC)nc2c1` (stereo not shown), the IC50 was 3.76 µM (human HDAC class I/II; enzyme activity, inhibitor, HDAC-Glo I/II; HCT-116).
For `COC[C@@H](NC(C)=O)C(=O)NCc1ccc(OCc2cccc(F)c2)cc1`, the IC50 was 13.6 ± 4.1 µM (voltage-gated sodium channel; peak sodium current, inhibitor, whole-cell patch clamp; CAD; 0 mV from -80 mV holding).
The IC50 of `CC(C)[C@H](NC(=O)[C@@H]1OC(=O)[C@H]1C1CC1)C(=O)N[C@H](C(=O)OCc1ccccc1)C(C)C` is reported as 3.19 ± 0.164 µM (human proteasome β2 subunit).
`NC(=O)c1ccsc1NC(=O)Cc1csc2ccccc12` has an IC50 of 7.5 µM (JNK; c-Jun phosphorylation; HeLa GFP-c-Jun; 60 min, added: 2 ng/mL TNF-alpha).
With `C/C=C1\NC(=O)[C@@H](NC(=O)[C@@H](NC(=O)[C@H](C)NC(=O)C/C(C)=C/Cl)[C@@H](C)CC)[C@@H](C)OC(=O)[C@H](C(C)C)NC(=O)[C@H](Cc2ccc(O)cc2)N(C)C(=O)[C@H](Cc2ccccc2)N2C(=O)[C@H](CC[C@H]2O)NC1=O` the IC50 was greater than 20 µM (bovine trypsin; enzyme activity, inhibitor; 30 min, pH 7.4, 22 °C, added: Z-Leu-Arg-Arg-AMC).
`CC[C@H](C)[C@@H]1C(=O)O[C@H]1C(=O)N[C@H](C(=O)N[C@H](C(=O)OCc1ccccc1)C(C)(C)C)C(C)C` gave an IC50 of 3.75 ± 0.263 µM (human proteasome β2 subunit).
For `O=[N+]([O-])/N=C1\NCCN1Cc1cnc(Cl)s1`, the IC50 was greater than 1 µg/mL (mAb-19F2 (BALB/c mouse monoclonal antibody); antibody binding, indirect competitive ELISA).
`CC[C@H](C)[C@@H]1C(=O)O[C@H]1C(=O)N[C@H](C(=O)N[C@@H](COCc1ccccc1)C(=O)OCc1ccccc1)C(C)C` has an IC50 of 1.56 ± 0.062 µM (human proteasome β2 subunit).
With `NC[C@H]1O[C@H](O[C@H]2[C@H](O)[C@@H](O[C@H]3O[C@H](CO)[C@@H](O)[C@H](N)[C@H]3O)[C@H](N)C[C@@H]2N)[C@H](N)C[C@@H]1O` the IC50 was 2.3 µM (Mycobacterium smegmatis 70S ribosome; phenylalanine incorporation, inhibitor, cell-free translation; hybrid ribosomes 0.25 µM; 60 min, 37 °C, added: (UUU)12 mRNA).
`N#CCCC(Br)(C#N)CBr` (stereo not shown) has an IC50 of 1.01 µM (cysteine peptide Ac-RFAACAA-COOH; peptide depletion, DPRA RapidFire-MS/MS; 24 h, pH 7.5, room temperature, added: 5.0 µM cysteine peptide).
`C[C@H](NC(=O)C1CCNCC1)C(=O)Nc1ccc2c(c1)C(=O)c1ccc(NC(=O)[C@H](C)NC(=O)C3CCNCC3)cc1C2=O` has an IC50 of greater than 100 µM (HIV-1 nucleocapsid protein; TAR/cTAR annealing, inhibitor, gel electrophoresis).
`NC[C@@H]1O[C@H](O[C@H]2[C@@H](O)[C@H](O[C@@H]3[C@@H](O)[C@H](N)C[C@H](N)[C@H]3O[C@H]3O[C@H](CO)[C@@H](O)[C@H](O)[C@H]3N)O[C@@H]2CO)[C@H](N)[C@@H](O)[C@@H]1O` has an IC50 of 0.02 ± 0.01 µg/mL (Mycobacterium smegmatis ribosome wild type; translation, cell-free luciferase synthesis).
For `Cc1[nH]ccc2c1[nH]c1cc(=O)ccc12`, the IC50 was 5.2 µM (hedgehog pathway; alkaline phosphatase activity, inhibitor; C3H10T1/2; 5 days, added: Shh).
`CC(=O)C=Cc1ccccc1` gave an IC50 of 21.2 µM (cysteine peptide Ac-RFAACAA-COOH; peptide depletion, DPRA RapidFire-MS/MS; 24 h, pH 7.5, room temperature, added: 5.0 µM cysteine peptide).
For `Cc1cc(O)cc2c1O[C@](C)(CCC[C@H](C)CCC[C@H](C)CCCC(C)C)CC2`, the IC50 was greater than 30 µM (COX-1 (rat); thromboxane B2 formation; washed rat platelets; 25 min pretreatment, added: A23187 1-2 µM).
With `N=C(N)NCCC[C@H](N)C(=O)O` the IC50 was 3300 µM (neuronal nicotinic acetylcholine receptor rat; ACh-evoked current, antagonist, whole-cell voltage clamp; rat intracardiac neurons; holding -90 mV, added: ACh 100 µM).
The IC50 of `CC(C)[C@H](NC(=O)[C@@H]1OC(=O)[C@H]1C1CCCC1)C(=O)N[C@H](C(=O)OCc1ccccc1)C(C)C` is reported as 7.47 ± 0.748 µM (human proteasome β2 subunit).
For `O=C(NC(=O)c1c(F)cccc1F)Nc1cc(Cl)c(OC(F)(F)C(F)F)c(Cl)c1`, the IC50 was greater than 1 µg/mL (mAb-19F2 (BALB/c mouse monoclonal antibody); antibody binding, indirect competitive ELISA).
With `NCC1OC(OC2C(CO)OC(OC3C(O)C(N)CC(N)C3OC3OC(CO)C(OCCCc4ccccc4)C(O)C3N)C2O)C(N)C(O)C1O` (stereo not shown) the IC50 was 0.2 ± 0.07 µg/mL (Mycobacterium smegmatis ribosome wild type; translation, cell-free luciferase synthesis).

Excerpt of the above:
For `COC[C@@H](NC(C)=O)C(=O)NCc1ccc(OCc2cccc(F)c2)cc1`, the IC50 was 13.6 ± 4.1 µM (voltage-gated sodium channel; peak sodium current, inhibitor, whole-cell patch clamp; CAD; 0 mV from -80 mV holding).
`CC[C@H](C)[C@@H]1C(=O)O[C@H]1C(=O)N[C@H](C(=O)N[C@@H](COCc1ccccc1)C(=O)OCc1ccccc1)C(C)C` has an IC50 of 1.56 ± 0.062 µM (human proteasome β2 subunit).
